Measurements collected from several papers.
Compare with care: the assays were run in different laboratories. ± marks the error that the study gave. Values after ≈ are worked out from the molar mass of the structure shown.

SMILES | organism | assay | system | setting | scale | endpoint | result
CN[C@@H]1[C@H](O)[C@H](NC)[C@H]2O[C@]3(O)[C@H](O[C@@H]2[C@H]1O)O[C@H](C)C[C@@]3(O)CNCCc1ccccc1 | Mycobacteroides abscessus | LC-MS/MS, item: intracellular compound | ATCC 19977 | 100 µM, 30 min | reference: compound over spectinomycin | intracellular accumulation ratio | 12 fold
CCn1c(SCc2ccc(Cl)cc2)nc2cc3ccccc3cc2c1=O | coxsackievirus B4 | plaque | BGM | concentration not given, non-toxic dose |  | virus titre reduction | 20 ± 4%
Cc1ncc([N+](=O)[O-])n1CCOCc1nnc(SCC(=O)c2ccc(Cl)cc2)o1 | Streptococcus pyogenes |  | DMSO | 60 µg/mL, 24 h, 37 °C |  | inhibition zone diameter | 15 to 20 mm
OC[C@H]1O[C@@H](n2cnc3c(SCc4ccccc4)nc(Cl)nc32)C[C@@H]1O | Helicobacter pylori | microbial growth, absorbance | 26695 | 10.8 µM |  | inhibition | 5%
COc1ccc(-n2c(SCC#N)nnc2[C@H](Cc2ccccc2)NC(=O)Cc2c(C)[nH]c3ccccc23)cc1 | HIV-2 | HIV-2-induced cytopathicity, MTT | MT-4, wild type |  |  | EC50 | 2.69 ± 0.17 µM
CC[C@@H](C)[C@@H](NC(=O)[C@@H](C)NC(=O)[C@@H](CCCCN)NC(=O)[C@@H](CC(C)C)NC(=O)[C@@H](CC(C)C)NC(=O)[C@H](NC(=O)[C@@H](CCCCN)NC(=O)[C@@H](CC(C)C)NC(=O)[C@@H](CCCCN)NC(=O)[C@@H](CCCCN)NC(=O)[C@@H](CCCCN)NC(=O)[C@@H](CCCCN)NC(=O)[C@@H](C)NC(=O)[C@@H](CCCCN)NC(=O)[C@@H](CO)NC(=O)[C@@H](Cc1ccccc1)NC(=O)[C@H](NC(=O)[C@@H](CCCCN)NC(=O)[C@@H](CC(C)C)NC(=O)[C@@H](Cc1ccccc1)NC(=O)[C@@H](CO)NC(=O)[C@@H](CCCCN)NC(=O)[C@@H](Cc1c[nH]c2ccccc12)NC(=O)[C@@H](CCCCN)NC(C)=O)[C@H](C)O)[C@H](C)O)C(=O)N[C@H](CO)C(=O)N[C@H](CCCCN)C(N)=O | Acinetobacter baumannii |  | 11 isolates | 24 h, 37 °C |  | MIC geometric mean | 0.8 µM (≈ 2.5 µg/mL)
COc1ccc(-c2nc(-c3ccccc3OC)[nH]c2-c2ccc(OC)cc2)cc1 | Schistosoma mansoni |  | mature male and female worms | 50 µM, 96 h |  | worm killing | 0%
CO[C@H]1/C=C/O[C@@]2(C)Oc3c(C)c(O)c4c(c3C2=O)C2=NC3(CCN(CC(C)C)CC3)NC2=C(NC(=O)/C(C)=C\C=C\[C@H](C)[C@H](O)[C@@H](C)[C@@H](O)[C@@H](C)[C@H](OC(=O)c2ccccc2)[C@@H]1C)C4=O | Mycobacteroides abscessus |  | ATCC 19977 |  | reference: rifabutin | MIC fold lower | 20 fold
COc1cccc(CSc2nc3cc4ccccc4cc3c(=O)n2C)c1 | coxsackievirus B4 | plaque | BGM | concentration not given, non-toxic dose |  | virus titre reduction | 23.3 ± 2%
COc1c(C)c(O)c(C)c(O)c1C(=O)C1C(C=C(C)C=O)C=C(C)CC1c1ccccc1 (centres unmarked) | human respiratory syncytial virus | viral replication, CPE reduction | HEp-2, A2 |  |  | IC50 | 50 µM
CCCCCCCCCCCCCC(=O)N[C@H]1C(=O)N[C@@H](CN)C(=O)N[C@@H](CO)C(=O)N[C@@H](Cc2ccc(O)cc2)C(=O)O[C@H]1C | Staphylococcus aureus | time-kill curve | SH1000 | at least 2 x MIC, 30 °C |  | time to bactericidal effect | < 10 min
CC(C)(C)NCC(SS(=O)(=O)O)c1ccccc1 (centres unmarked) | Schistosoma mansoni |  | mice | oral, 600 mg/kg single dose, 42 days post-infection | reference: vehicle | female worm burden reduction | 100%
CN[C@H](CC(C)C)C(=O)N[C@H]1C(=O)N[C@@H](CC(N)=O)C(=O)N[C@H]2C(=O)N[C@H]3C(=O)N[C@H](C(=O)N[C@H](C(=O)O)c4cc(O)cc(O)c4-c4cc3ccc4O)[C@H](O)c3ccc(c(Cl)c3)Oc3cc2cc(c3O[C@@H]2O[C@H](CO)[C@@H](O)[C@H](O)[C@H]2O[C@H]2C[C@](C)(NCc3ccc(C(=O)OCCCCCCN(Cc4ccccn4)Cc4ccccn4)cc3)[C@H](O)[C@H](C)O2)Oc2ccc(cc2Cl)[C@H]1O | Bacillus subtilis | protein synthesis, item: FabL | 168 | concentration not given, 10 min, at peak effective concentration | reference: untreated | regulation factor | 41.9 ± 3.5
O=C(Nc1ccccc1Nc1ccccc1)c1nccnc1Cl | Valsa mali | mycelial growth, mycelial growth rate method |  | 50 mg/L |  | inhibition | 13.6%
COc1ccc(S(=O)(=O)NCc2c[nH]nc2-c2cccs2)cc1 | Plasmodium falciparum | parasite growth | Dd2-B2 clone |  |  | EC90 | 1.07 µM
CC[C@H](C)[C@H](NC(=O)[C@H](CCC(N)=O)NC(=O)[C@H](Cc1ccccc1)NC(=O)[C@H](CO)NC(=O)[C@H](CS)NC(=O)[C@H](Cc1ccccc1)NC(=O)[C@H](C)NC(=O)[C@H](CCCCN)NC(=O)[C@H](CCCNC(=N)N)NC(=O)[C@H](CCCCN)NC(=O)[C@H](CC(C)C)NC(=O)[C@H](Cc1c[nH]cn1)NC(=O)[C@@H]1CCCN1C(=O)[C@H](CCC(N)=O)NC(=O)[C@H](CC(=O)O)NC(=O)[C@H](Cc1c[nH]cn1)NC(=O)[C@H](Cc1ccccc1)NC(=O)[C@@H]1CCCN1C(=O)[C@H](CS)NC(=O)[C@H](CC(N)=O)NC(=O)[C@H](CC(=O)O)NC(=O)[C@H](CC(C)C)NC(=O)[C@H](CC(N)=O)NC(=O)[C@@H]1CCCN1C(=O)[C@H](CCC(N)=O)NC(=O)[C@@H](NC(=O)[C@H](CCCCN)NC(=O)[C@@H](NC(=O)[C@H](CS)NC(=O)[C@@H](NC(=O)[C@@H](NC(=O)[C@H](CCCNC(=N)N)NC(=O)CN)[C@@H](C)O)[C@@H](C)O)[C@@H](C)O)[C@@H](C)O)C(=O)N[C@@H](Cc1ccc(O)cc1)C(=O)N[C@@H](C)C(=O)N[C@H](C(=O)N1CCC[C@H]1C(=O)N[C@@H](Cc1c[nH]c2ccccc12)C(=O)N[C@@H](CCC(N)=O)C(=O)NCC(=O)N[C@H](C(=O)N[C@@H](CCSC)C(=O)N[C@H](C(=O)N[C@@H](CC(C)C)C(=O)N[C@@H](CO)C(=O)N[C@@H](CCCCN)C(=O)N[C@@H](CO)C(=O)N[C@H](C(=O)N[C@@H](CS)C(=O)N[C@@H](CCC(N)=O)C(=O)N[C@@H](CC(=O)O)C(=O)N[C@@H](C)C(=O)O)[C@@H](C)O)[C@@H](C)O)[C@@H](C)O)C(C)C | simian immunodeficiency virus | viral replication | human PBMC CCR5 Δ32/Δ32, SIVmac239 | 10 µM, average, AUC-based |  | reduction of infectious virus production | ~95%
CCOC(=O)C1=C(C)NC2=C(C(=O)CC(C)(C)C2)C1c1ccc(OCC(=O)NN=Cc2cccc([N+](=O)[O-])c2)cc1OCC(=O)NN=Cc1cccc([N+](=O)[O-])c1 (centres unmarked) | Pseudomonas fluorescens |  |  | concentration not given, 24 h, 37 °C |  | inhibition zone diameter | 5.3 ± 0.1 mm
CO[C@H]1/C=C/O[C@@]2(C)Oc3c(C)c(O)c4c(c3C2=O)C2=NC3(CCN(CC(C)C)CC3)NC2=C(NC(=O)/C(C)=C\C=C\[C@H](C)[C@H](O)[C@@H](C)[C@@H](O)[C@@H](C)[C@H](OC(=O)c2ccccc2C(F)(F)F)[C@@H]1C)C4=O | Mycobacteroides abscessus |  | ATCC 19977 |  | reference: wild type over arr deletion | MIC ratio | 0.8

SMILES | organism | assay | system | setting | scale | endpoint | result
CCOC(=O)C1=C(C)NC2=C(C(=O)CC(C)(C)C2)C1c1ccc(OCC(=O)NN=Cc2cc(Br)c(O)c(Br)c2)cc1OCC(=O)NN=Cc1cc(Br)c(O)c(Br)c1 (centres unmarked) | Proteus vulgaris |  |  | concentration not given, 24 h, 37 °C |  | inhibition zone diameter | 5.6 ± 0.1 mm
CN[C@@H]1[C@H](O)[C@H](NC)[C@H]2O[C@]3(O)[C@H](O[C@@H]2[C@H]1O)O[C@H](C)C[C@@]3(O)CNCc1ccc(F)cc1 | Mycobacteroides abscessus | LC-MS/MS, item: intracellular compound | ATCC 19977 | 100 µM, 30 min | reference: compound over spectinomycin | intracellular accumulation ratio | 4.3 fold
O=c1c(-c2nc3ccccc3s2)cc2c(n1NS(=O)(=O)c1ccc(Cl)cc1)CCCCCC2 | Human mastadenovirus B | viral replication, plaque reduction | HEp-2 cells, type 7 | non-toxic concentration |  | reduction | 20%
CCCCCCSC[C@H]1CN(Cc2c[nH]c3c(N)ncnc23)C[C@@H]1O | Helicobacter pylori | growth | horse blood agar 5% |  |  | IC90 | 4 to 8 ng/mL (≈ 0.011 to 0.022 µM)
CC(=O)OC[C@H]1O[C@@H](Sc2sc(C(=O)c3ccc(C)cc3)c(N)c2-c2nc3ccccc3s2)[C@H](OC(C)=O)[C@@H](OC(C)=O)[C@H]1OC(C)=O | coxsackievirus B4 | plaque reduction |  | non-toxic dose NG, mean over three titres |  | viral reduction | 50%
CCCCCCCCCC(=O)N[C@@H](Cc1c[nH]c2ccccc12)C(=O)N[C@H](CC(N)=O)C(=O)N[C@@H](CC(=O)O)C(=O)N[C@@H]1C(=O)NCC(=O)N[C@@H](CCCNC(=O)OC2/C=C/CCCCC2)C(=O)N[C@@H](CC(=O)O)C(=O)N[C@H](C)C(=O)N[C@@H](CC(=O)O)C(=O)NCC(=O)N[C@H](CO)C(=O)N[C@@H]([C@H](C)CC(=O)O)C(=O)N[C@@H](CC(=O)c2ccccc2N)C(=O)O[C@@H]1C (some centres unmarked) | Staphylococcus aureus |  | MSSA | concentration not given | reference: UG gel over TAG gel | activity improvement | 71%
Nc1ncnc2c(CN3C[C@H](CSc4cnccn4)[C@@H](O)C3)c[nH]c12 | Helicobacter pylori | growth | horse blood agar |  |  | IC90 | ~10 ng/mL (≈ 0.028 µM)
CC(C)(C)OC(=O)/C=C/c1ccc(O)c(O)c1 | Trypanosoma brucei rhodesiense |  | STIB900 | concentration not given, bloodstream trypomastigotes, active if IC50 < 10 µM |  | antitrypanosomal activity | active
CC1(CCCCCCCCCCOCCCOP(=O)(O)CO[C@H](CO)Cn2ccc(N)nc2=O)COC1 | Murid betaherpesvirus 1 | qPCR | MEF, Smith |  | reference: CC50 over EC50 | selectivity index | > 2
CCn1c(SCc2ccc(C#N)cc2)nc2cc3ccccc3cc2c1=O | coxsackievirus B4 | plaque | BGM | concentration not given, non-toxic dose |  | virus titre reduction | 20 ± 1%
CC1(CCCCCCCCCCCCCCOCCCOP(=O)(O)CO[C@H](CO)Cn2ccc(N)nc2=O)COC1 | Murid betaherpesvirus 1 | qPCR | MEF, Smith |  | reference: CC50 over EC50 | selectivity index | > 3
COc1ccc(-n2c(SCCCN3CCOCC3)nnc2[C@H](Cc2ccccc2)NC(=O)Cc2c(C)[nH]c3ccccc23)cc1 | HIV-2 | HIV-2-induced cytopathicity, MTT | MT-4, wild type |  |  | EC50 | 3.73 ± 1.02 µM
COc1ncccc1C(=O)Nc1ccccc1Nc1ccccc1 | Valsa mali | mycelial growth, mycelial growth rate method |  | 50 mg/L |  | inhibition | 3.41%
Nc1ccn(C[C@@H](CO)OCP(=O)(O)OCCCS(=O)(=O)CCCCCCCCCCC2CCC2)c(=O)n1 | Murid betaherpesvirus 1 | qPCR | MEF, Smith |  | reference: CC50 over EC50 | selectivity index | > 667
CNCc1ccc2c(c1)N(C(=O)OCC(O)CO)[C@H](CNC(=N)N)[C@H]2NC(=O)C(=O)Nc1ccc(Cl)c(F)c1 (some centres unmarked) | HIV-1 JR-FL pseudovirus | viral infection | Cf2Th-CD4/CCR5 cells |  | reference: BNM-III-170 | potency fold increase | 2.5 fold
CCCCCCC[C@@H](CC(=O)O)OC(=O)C[C@@H](CCCCCCC)O[C@@H]1O[C@@H](C)[C@H](O)[C@@H](O)[C@H]1O | Aliivibrio fischeri | bioluminescence reduction, Microtox |  | 15 min |  | EC50 | 58.2 ± 13.9 µM
Cc1ccc(N2Cc3cc(NC(=O)N4CCN(c5cccc(C(F)(F)F)c5)CC4)ccc3C2=O)cc1 | Trypanosoma brucei rhodesiense |  | STIB-900 | 3 days | reference: IC50 T. b. brucei over IC50 T. b. rhodesiense | selectivity ratio | 61
